Results gathered from unrelated publications.
A part holds a random share of what one study measured. Changes are numbered by the printed parent chain.

Set 1
Target: TAR DNA-binding protein 43, full length, His tag (TARDBP, Homo sapiens, UniProt Q13148, residues 1-414)
Method: RNA Bind-n-Seq
Form: RNA
Matrix: in vitro
Concentration: 20 nM
Notes: 6-mer, flanks averaged, single round
Together with: 150 mM LiCl
Reference: input library
Reading: higher = stronger binding
Sequence | 6-mer enrichment (R)
GUGUUA | 1.41
GUUCAG | 0.946
GCCUUU | 1.07
CUACCA | 0.857
AGGGCU | 0.963
GGGCAC | 1.05
AAUUGA | 0.903
GCUUCG | 0.861

Set 2
Target: Histone acetyltransferase KAT6A, winged helix 2, GST fusion (KAT6A, Homo sapiens, UniProt Q92794, residues 85-181)
Method: protein binding microarray
Form: double-stranded DNA, one strand shown
Matrix: in vitro
Concentration: not given
Notes: 8-mer, flanks averaged, mean of 2 arrays, mostly near background
Reference: not given
Reading: higher = stronger binding
Residues (chain): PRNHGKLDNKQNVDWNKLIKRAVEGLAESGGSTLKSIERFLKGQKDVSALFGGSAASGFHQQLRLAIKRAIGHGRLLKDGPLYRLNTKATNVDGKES
Sequence | E-score
CGGGTGCC | 0.197
ACATGGGA | -0.0104
GTGCGCCA | 0.0315
TGATGCCA | -0.133
ATCGGACG | 0.0034
AATCGGCG | 0.0959
ACAGACCA | 0.135
AACCCTCT | -0.123

Set 3
Target: Max-binding protein MNT, bHLH-zipper, MAX partner unstated (MNT, Homo sapiens, UniProt Q99583, residues 220-300)
Method: protein-binding microarray
Form: double-stranded DNA, one strand shown
Matrix: in vitro
Concentration: not given
Notes: k-mer, scored over probes, only values ≥0.25
Reading: higher = stronger binding
Construct (chain): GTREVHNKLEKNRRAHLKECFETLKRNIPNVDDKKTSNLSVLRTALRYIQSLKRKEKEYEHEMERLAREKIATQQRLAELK
Sequence | E-score
AGACCACG | 0.397
CGCGTGCC | 0.419
CGAGCACA | 0.297
ACACGCGA | 0.418
ATCACGTG | 0.494
AGTCACAT | 0.371
ATACCACG | 0.357
CAAACGTG | 0.38

Single results of other studies
Parent: viral docking peptide; KKVKRRLFETREL; partner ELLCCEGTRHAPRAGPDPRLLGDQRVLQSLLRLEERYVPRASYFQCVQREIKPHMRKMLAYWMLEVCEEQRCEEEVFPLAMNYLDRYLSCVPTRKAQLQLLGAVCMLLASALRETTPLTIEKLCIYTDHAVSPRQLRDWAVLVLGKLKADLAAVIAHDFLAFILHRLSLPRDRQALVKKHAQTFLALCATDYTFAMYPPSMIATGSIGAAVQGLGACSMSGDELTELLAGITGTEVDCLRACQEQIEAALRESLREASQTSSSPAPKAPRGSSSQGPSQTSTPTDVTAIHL
Variant | target | assay | system | setting | scale | quantity | result
E9A | CCND3, cyclin fold, Cln2 fusion (human) | yeast growth competition, sequencing | yeast | weak parent motif | reference: not given, higher = stronger binding | normalised enrichment score | 0.119

For quick reference, copied from above (single results of other studies):
Variant | target | assay | system | setting | scale | quantity | result
E9A | CCND3, cyclin fold, Cln2 fusion (human) | yeast growth competition, sequencing | yeast | weak parent motif | reference: not given, higher = stronger binding | normalised enrichment score | 0.119
